Measured values of several laboratories.
Numbered parts are unrelated; each lists some results of a single study.
Sequence of UniProt Q15835 (whole entry, looked up): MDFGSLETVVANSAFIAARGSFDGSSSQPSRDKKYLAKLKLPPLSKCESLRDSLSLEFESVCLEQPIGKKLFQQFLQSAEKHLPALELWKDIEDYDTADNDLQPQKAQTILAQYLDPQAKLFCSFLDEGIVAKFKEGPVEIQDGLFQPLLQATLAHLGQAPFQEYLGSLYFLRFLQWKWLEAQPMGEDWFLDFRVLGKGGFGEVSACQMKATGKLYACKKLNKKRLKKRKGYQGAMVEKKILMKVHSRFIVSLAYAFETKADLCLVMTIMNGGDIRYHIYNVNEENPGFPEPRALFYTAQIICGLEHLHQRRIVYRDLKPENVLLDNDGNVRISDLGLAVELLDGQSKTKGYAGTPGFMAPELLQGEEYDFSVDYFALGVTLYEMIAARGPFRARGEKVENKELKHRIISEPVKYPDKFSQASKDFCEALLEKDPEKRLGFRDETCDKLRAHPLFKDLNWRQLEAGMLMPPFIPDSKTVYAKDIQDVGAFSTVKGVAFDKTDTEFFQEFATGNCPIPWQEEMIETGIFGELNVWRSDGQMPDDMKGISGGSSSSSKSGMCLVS
Sequence of UniProt Q96RG2 (whole entry, looked up): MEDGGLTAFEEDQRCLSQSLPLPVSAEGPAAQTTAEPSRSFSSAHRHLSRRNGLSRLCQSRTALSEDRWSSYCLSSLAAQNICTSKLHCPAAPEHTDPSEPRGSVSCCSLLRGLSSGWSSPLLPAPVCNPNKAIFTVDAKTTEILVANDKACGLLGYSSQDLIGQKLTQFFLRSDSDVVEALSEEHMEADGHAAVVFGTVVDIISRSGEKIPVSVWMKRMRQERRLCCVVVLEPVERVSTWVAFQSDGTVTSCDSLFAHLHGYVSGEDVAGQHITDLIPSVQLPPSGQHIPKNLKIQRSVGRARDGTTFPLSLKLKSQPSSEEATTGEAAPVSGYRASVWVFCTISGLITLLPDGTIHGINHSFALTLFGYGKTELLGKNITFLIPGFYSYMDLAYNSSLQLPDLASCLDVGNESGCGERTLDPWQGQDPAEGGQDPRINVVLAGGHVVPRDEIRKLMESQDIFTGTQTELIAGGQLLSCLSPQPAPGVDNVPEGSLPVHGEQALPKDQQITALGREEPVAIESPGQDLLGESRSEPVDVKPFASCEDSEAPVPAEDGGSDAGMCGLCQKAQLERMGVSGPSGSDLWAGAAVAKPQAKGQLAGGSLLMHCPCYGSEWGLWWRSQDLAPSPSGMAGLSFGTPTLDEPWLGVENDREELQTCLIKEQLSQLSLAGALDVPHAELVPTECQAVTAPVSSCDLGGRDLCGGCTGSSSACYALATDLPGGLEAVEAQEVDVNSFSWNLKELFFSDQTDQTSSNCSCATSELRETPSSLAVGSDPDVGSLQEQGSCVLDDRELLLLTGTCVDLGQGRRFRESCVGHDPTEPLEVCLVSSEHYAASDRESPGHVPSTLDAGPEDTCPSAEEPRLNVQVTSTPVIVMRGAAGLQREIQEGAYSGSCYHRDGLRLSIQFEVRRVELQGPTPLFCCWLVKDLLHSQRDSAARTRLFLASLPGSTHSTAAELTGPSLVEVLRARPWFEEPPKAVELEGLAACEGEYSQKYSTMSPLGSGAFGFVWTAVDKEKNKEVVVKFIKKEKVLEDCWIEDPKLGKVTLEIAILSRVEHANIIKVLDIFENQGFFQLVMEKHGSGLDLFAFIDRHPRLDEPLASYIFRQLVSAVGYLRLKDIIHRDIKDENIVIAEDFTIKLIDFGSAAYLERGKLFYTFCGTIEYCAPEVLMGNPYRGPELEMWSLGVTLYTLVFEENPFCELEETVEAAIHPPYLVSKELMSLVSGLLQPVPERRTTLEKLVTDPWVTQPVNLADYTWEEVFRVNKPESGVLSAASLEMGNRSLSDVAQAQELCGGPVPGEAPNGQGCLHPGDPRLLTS
Sequence of UniProt P07949 (whole entry, looked up): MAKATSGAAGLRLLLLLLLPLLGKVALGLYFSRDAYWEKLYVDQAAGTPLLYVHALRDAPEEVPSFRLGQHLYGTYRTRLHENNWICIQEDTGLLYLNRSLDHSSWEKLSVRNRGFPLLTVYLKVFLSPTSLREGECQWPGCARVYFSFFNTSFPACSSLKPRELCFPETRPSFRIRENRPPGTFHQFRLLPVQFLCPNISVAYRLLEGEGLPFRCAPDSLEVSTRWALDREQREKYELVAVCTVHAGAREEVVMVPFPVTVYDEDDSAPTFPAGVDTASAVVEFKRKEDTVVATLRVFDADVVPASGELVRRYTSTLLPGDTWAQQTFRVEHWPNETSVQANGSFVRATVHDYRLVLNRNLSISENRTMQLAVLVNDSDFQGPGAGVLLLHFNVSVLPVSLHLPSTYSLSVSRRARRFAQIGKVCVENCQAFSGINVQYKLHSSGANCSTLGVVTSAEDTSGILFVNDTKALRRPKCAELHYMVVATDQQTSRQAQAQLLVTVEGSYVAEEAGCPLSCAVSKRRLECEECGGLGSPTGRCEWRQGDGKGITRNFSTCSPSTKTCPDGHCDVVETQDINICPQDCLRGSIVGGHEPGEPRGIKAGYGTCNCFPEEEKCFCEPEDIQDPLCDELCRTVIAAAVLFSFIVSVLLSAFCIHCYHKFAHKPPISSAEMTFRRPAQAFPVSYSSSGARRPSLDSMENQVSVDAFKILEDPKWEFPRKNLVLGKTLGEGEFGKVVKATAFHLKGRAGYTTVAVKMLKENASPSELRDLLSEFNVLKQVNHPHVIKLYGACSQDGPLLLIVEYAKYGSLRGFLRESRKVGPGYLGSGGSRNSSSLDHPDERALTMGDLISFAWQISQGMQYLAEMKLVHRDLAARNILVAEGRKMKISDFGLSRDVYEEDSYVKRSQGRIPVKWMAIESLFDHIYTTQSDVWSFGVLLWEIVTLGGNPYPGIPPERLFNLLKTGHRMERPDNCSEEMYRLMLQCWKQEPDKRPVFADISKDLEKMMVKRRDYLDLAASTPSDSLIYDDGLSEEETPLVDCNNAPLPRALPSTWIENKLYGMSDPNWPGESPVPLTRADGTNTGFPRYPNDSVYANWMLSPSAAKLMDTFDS
Sequence of UniProt Q86Z02 (whole entry, looked up): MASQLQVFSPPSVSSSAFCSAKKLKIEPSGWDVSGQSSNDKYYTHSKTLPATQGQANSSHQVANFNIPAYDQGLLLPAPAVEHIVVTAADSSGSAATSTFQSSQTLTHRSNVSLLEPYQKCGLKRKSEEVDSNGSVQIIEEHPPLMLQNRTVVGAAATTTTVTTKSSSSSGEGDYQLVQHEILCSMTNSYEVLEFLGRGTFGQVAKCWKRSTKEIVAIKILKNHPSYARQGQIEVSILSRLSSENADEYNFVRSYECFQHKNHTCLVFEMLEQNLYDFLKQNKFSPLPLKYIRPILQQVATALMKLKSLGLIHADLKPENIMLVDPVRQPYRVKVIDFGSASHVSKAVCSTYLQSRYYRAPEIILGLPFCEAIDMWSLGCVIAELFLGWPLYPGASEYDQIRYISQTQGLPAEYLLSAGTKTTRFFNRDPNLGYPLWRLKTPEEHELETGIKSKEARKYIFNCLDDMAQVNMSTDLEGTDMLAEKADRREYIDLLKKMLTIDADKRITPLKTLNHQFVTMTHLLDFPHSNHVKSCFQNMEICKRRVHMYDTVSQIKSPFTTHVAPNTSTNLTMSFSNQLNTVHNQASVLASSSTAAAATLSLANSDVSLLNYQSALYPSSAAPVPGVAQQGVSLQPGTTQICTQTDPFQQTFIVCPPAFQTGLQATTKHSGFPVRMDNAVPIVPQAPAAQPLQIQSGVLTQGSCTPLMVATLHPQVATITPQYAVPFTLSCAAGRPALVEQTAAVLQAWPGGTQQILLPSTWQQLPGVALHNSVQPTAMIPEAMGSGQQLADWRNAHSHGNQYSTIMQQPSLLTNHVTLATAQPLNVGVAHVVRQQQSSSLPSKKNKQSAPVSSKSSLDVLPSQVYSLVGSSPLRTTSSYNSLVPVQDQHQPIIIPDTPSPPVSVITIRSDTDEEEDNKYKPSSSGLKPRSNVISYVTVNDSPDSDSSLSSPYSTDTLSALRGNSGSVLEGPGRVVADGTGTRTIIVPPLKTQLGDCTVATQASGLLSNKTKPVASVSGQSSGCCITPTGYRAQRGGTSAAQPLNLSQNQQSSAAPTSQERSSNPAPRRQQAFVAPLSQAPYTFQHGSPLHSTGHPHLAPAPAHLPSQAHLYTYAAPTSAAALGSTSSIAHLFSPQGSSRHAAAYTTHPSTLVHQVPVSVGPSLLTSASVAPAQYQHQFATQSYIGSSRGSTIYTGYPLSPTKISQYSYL
Sequence of UniProt P49137 (whole entry, looked up): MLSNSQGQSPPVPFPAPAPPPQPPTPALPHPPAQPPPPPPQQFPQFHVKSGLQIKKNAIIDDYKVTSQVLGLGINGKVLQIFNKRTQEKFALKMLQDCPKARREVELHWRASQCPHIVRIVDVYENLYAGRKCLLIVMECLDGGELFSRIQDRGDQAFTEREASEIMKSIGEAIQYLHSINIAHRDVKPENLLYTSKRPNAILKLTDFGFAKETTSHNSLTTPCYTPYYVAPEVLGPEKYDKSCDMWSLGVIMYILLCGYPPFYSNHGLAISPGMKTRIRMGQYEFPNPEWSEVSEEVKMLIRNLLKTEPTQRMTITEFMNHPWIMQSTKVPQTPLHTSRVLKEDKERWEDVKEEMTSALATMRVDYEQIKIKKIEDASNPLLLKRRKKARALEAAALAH
Sequence of UniProt P11229 (whole entry, looked up): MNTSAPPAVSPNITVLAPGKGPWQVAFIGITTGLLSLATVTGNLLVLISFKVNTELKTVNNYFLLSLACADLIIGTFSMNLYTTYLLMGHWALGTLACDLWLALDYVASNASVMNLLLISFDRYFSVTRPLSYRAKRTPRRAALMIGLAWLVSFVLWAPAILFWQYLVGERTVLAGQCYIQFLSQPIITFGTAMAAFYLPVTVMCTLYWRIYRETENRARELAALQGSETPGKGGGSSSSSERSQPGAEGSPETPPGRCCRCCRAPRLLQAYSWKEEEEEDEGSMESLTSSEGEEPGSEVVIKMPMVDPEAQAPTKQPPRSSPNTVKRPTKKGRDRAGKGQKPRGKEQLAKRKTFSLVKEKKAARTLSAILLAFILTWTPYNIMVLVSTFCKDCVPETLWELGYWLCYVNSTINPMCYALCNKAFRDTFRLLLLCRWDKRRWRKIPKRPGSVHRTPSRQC

Sample 1
SMILES: CNC(=O)c1ccc(-c2cnn3ccc(C(=O)N(C)c4ccc(Cl)c(C(=O)OC)c4)cc23)cc1
The IC50 was 0.745 µM (PI4KB (Homo sapiens, UniProt Q9UBF8); enzyme activity, inhibitor, ADP-Glo).
For RET (Homo sapiens, UniProt P07949); enzyme activity, inhibitor: IC50 read > 30 µM.
It gave > 30 µM for IC50 (KDR (Homo sapiens, UniProt P35968); enzyme activity, inhibitor).
The IC50 was > 30 µM (KIT (Homo sapiens, UniProt P10721); enzyme activity, inhibitor).
It gave > 30 µM for IC50 (SLK (Homo sapiens, UniProt Q9H2G2); enzyme activity, inhibitor).
The IC50 was > 30 µM (SLC6A3 (Homo sapiens, UniProt Q01959); cell-free assay).
For Tribbles homolog 2 (TRIB2, Homo sapiens, UniProt Q92519); enzyme activity, inhibitor: IC50 read 3.48 µM.
The IC50 was > 30 µM (CHRM1 (Homo sapiens, UniProt P11229); cell-free assay).
For MAPKAPK2 (Homo sapiens, UniProt P49137); enzyme activity, inhibitor: IC50 read > 30 µM.
The IC50 was > 30 µM (IGF1R (Homo sapiens, UniProt P08069); enzyme activity, inhibitor).
The IC50 was > 30 µM (PKN2 (Homo sapiens, UniProt Q16513); enzyme activity, inhibitor).
It gave > 30 µM for IC50 (JAK2 (Homo sapiens, UniProt O60674); enzyme activity, inhibitor).
For DMPK (Homo sapiens, UniProt Q09013); enzyme activity, inhibitor: IC50 read > 30 µM.
The IC50 was > 30 µM (RAF1 (Homo sapiens, UniProt P04049); enzyme activity, inhibitor).
The IC50 was > 30 µM (RPS6KB1 (Homo sapiens, UniProt P23443); enzyme activity, inhibitor).
LCK (Homo sapiens, UniProt P06239); enzyme activity, inhibitor — IC50: > 30 µM.

Sample 2
Cell line: Huh-7
Tested at: 10 µM
Time: 24 h
The viability of CN(C)C(=S)SSC(=S)N(C)C is reported as 58.4%.
O=P1(NCCCl)OCCCN1CCCl (stereo not shown) has a viability of 92%.
For N#Cc1nn(-c2c(Cl)cc(C(F)(F)F)cc2Cl)c(N)c1[S+]([O-])C(F)(F)F (stereo not shown), the viability was 89.6%.
COP(=S)(OC)Oc1cc(Cl)c(Cl)cc1Cl has a viability of 94%.
O=C(CCCN1CCC2(CC1)C(=O)NCN2c1ccccc1)c1ccc(F)cc1 gave a viability of 68.2%.
With NC(=O)C[S+]([O-])C(c1ccccc1)c1ccccc1 (stereo not shown) the viability was 95.7%.

Sample 3
SMILES: CCn1cnc2c(Nc3cccc(Cl)c3)nc(N[C@H]3CCCC[C@H]3N)nc21
Effect on: enzyme activity
Action: inhibitor
Tested at: 0.5 µM
Relative to: control
The remaining activity was 88% (PASK (Homo sapiens, UniProt Q96RG2)).
For AKT1 (Homo sapiens, UniProt P31749): remaining activity read 108%.
It gave 101% for remaining activity (NEK11 (Homo sapiens, UniProt Q8NG66)).
ITK (Homo sapiens, UniProt Q08881) — remaining activity: 105%.
It gave 92.3% for remaining activity (ALK (Homo sapiens, UniProt Q9UM73)).
For FGR (Homo sapiens, UniProt P09769): remaining activity read 45.8%.

Sample 4
Compound: Cn1cncc1[C@](O)(COc1ccc(C#N)cc1-c1ccc(OC(F)(F)F)cc1)c1ccc(C#N)cc1
Method: competition with immobilised ligand
Tested at: 1 µM
DDR1 (Homo sapiens, UniProt Q08345); cell-free assay — remaining binding: 97%.
It gave 100% for remaining binding (CDKL5 (Homo sapiens, UniProt O76039); cell-free assay).
The remaining binding was 87% (TAOK1 (Homo sapiens, UniProt Q7L7X3); cell-free assay).
MARK1 (Homo sapiens, UniProt Q9P0L2); cell-free assay — remaining binding: 57%.
The remaining binding was 85% (MAPK6 (Homo sapiens, UniProt Q16659); cell-free assay).
The remaining binding was 78% (ZAP70 (Homo sapiens, UniProt P43403); cell-free assay).
The remaining binding was 95% (GRK1 (Homo sapiens, UniProt Q15835); cell-free assay).
TRPM6 (Homo sapiens, UniProt Q9BX84); cell-free assay — remaining binding: 100%.
For MAPK4 (Homo sapiens, UniProt P31152); cell-free assay: remaining binding read 100%.
For CDKL1 (Homo sapiens, UniProt Q00532); cell-free assay: remaining binding read 82%.
The remaining binding was 70% (CLK1 (Homo sapiens, UniProt P49759); cell-free assay).
GSK3A (Homo sapiens, UniProt P49840); cell-free assay — remaining binding: 62%.
The remaining binding was 75% (BMX (Homo sapiens, UniProt P51813); cell-free assay).
CDPK1 (Plasmodium falciparum, UniProt P62344); cell-free assay — remaining binding: 88%.
It gave 100% for remaining binding (HIPK1 (Homo sapiens, UniProt Q86Z02); cell-free assay).
It gave 100% for remaining binding (WNK1 (Homo sapiens, UniProt Q9H4A3); cell-free assay).
PKN1 (Homo sapiens, UniProt Q16512); cell-free assay — remaining binding: 100%.
For FLT3 (Homo sapiens, UniProt P36888, R834Q); cell-free assay: remaining binding read 98%.
The remaining binding was 84% (MERTK (Homo sapiens, UniProt Q12866); cell-free assay).
It gave 100% for remaining binding (CDK4 (Homo sapiens, UniProt P11802); cell-free assay).
It gave 93% for remaining binding (TEC (Homo sapiens, UniProt P42680); binding).

Excerpt of the above (sample 2):
The viability of CN(C)C(=S)SSC(=S)N(C)C is reported as 58.4%.
O=P1(NCCCl)OCCCN1CCCl (stereo not shown) has a viability of 92%.
For N#Cc1nn(-c2c(Cl)cc(C(F)(F)F)cc2Cl)c(N)c1[S+]([O-])C(F)(F)F (stereo not shown), the viability was 89.6%.
COP(=S)(OC)Oc1cc(Cl)c(Cl)cc1Cl has a viability of 94%.
O=C(CCCN1CCC2(CC1)C(=O)NCN2c1ccccc1)c1ccc(F)cc1 gave a viability of 68.2%.
With NC(=O)C[S+]([O-])C(c1ccccc1)c1ccccc1 (stereo not shown) the viability was 95.7%.
